{"data": "Assay results pooled from the literature", "organism": "Acinetobacter baumannii", "note": "Each line is one published result; not all experiments were run side by side."}
{"SMILES": "CC[C@H]1OC(=O)[C@H](C)[C@@H](OC(=O)Cc2cccc([N+](=O)[O-])c2)[C@H](C)[C@@H](O[C@@H]2O[C@H](C)C[C@H](N(C)C)[C@H]2O)[C@](C)(OC)C[C@@H](C)C(=O)[C@H](C)[C@@H](O)[C@]1(C)O", "test": "microbial growth", "test system": "ATCC19606", "MIC": "> 32 µg/mL"}
{"SMILES": "CCCCCC[N+](C)(C)CCCCCCOc1cc(OCCCCCC[N+](C)(C)CCCCCC)cc(OCCCCCC[N+](C)(C)CCCCCC)c1.[Br-].[Br-].[Br-]", "test system": "ATCC 17978", "MIC": "125 µM"}
{"SMILES": "C#CCOc1ccc(CN[C@@]2(C)C[C@H](O[C@H]3[C@H](Oc4c5cc6cc4Oc4ccc(cc4Cl)[C@@H](O)[C@@H](NC(=O)[C@@H](CC(C)C)NC)C(=O)N[C@@H](CC(N)=O)C(=O)N[C@H]6C(=O)N[C@H]4C(=O)N[C@H](C(=O)N[C@H](C(=O)NCC(N)=O)c6cc(O)cc(O)c6-c6cc4ccc6O)[C@H](O)c4ccc(c(Cl)c4)O5)O[C@H](CO)[C@@H](O)[C@@H]3O)O[C@@H](C)[C@H]2O)cc1OC", "test": "broth microdilution", "test system": "ATCC 17978, cation-adjusted Mueller-Hinton broth", "setting": "18 to 20 h, 37 °C, 0.002% polysorbate 80", "MIC": "128 µg/mL"}
{"SMILES": "CCCCCCCC(=O)N[C@@H](CCN)C(=O)N[C@H](C(=O)N[C@@H](C)C(=O)N[C@H]1CCNC(=O)[C@H]([C@@H](C)O)NC(=O)[C@H](CCN)NC(=O)[C@H](CCN)NC(=O)[C@H](CC(C)C)NC(=O)[C@@H](Cc2ccccc2)NC(=O)[C@H](CCN)NC1=O)[C@@H](C)O", "test": "CLSI broth microdilution", "test system": "246-01-C.246, CAMHB", "setting": "20 h, 37 °C", "MIC": "4 µg/mL"}
{"SMILES": "CCCCCCCC(=O)N[C@@H](CCN)C(=O)N[C@H](C(=O)N[C@@H](CN)C(=O)N[C@H]1CCNC(=O)[C@H]([C@@H](C)O)NC(=O)[C@H](CCCN)NC(=O)[C@H](CCN)NC(=O)[C@H]([C@@H](C)O)NC(=O)[C@@H](CC(C)C)NC(=O)[C@H](CCN)NC1=O)[C@@H](C)O", "test system": "ATCC 17978, CAMHB", "setting": "20 h, 37 °C", "MIC": "8 µg/mL"}
{"SMILES": "CC[C@H](C)[C@H](NC(=O)[C@@H](CCCNC(=N)N)NC(=O)[C@H](CCCNC(=N)N)NC(=O)[C@@H]1CCCN1C(=O)[C@@H]1CCCN1C(=O)[C@H](CCCCN)NC(=O)[C@@H]1CCCN1C(=O)[C@H](CCCNC(=N)N)NC(=O)[C@@H]1CCCN1C(=O)[C@H](CC(C)C)NC(=O)[C@H](Cc1ccc(O)cc1)NC(=O)[C@@H]1CCCN1C(=O)[C@@H]1CCCN1C(=O)[C@H](CCCCN)NC(=O)[C@H](CC(=O)O)NC(=O)[C@@H](N)C(C)C)C(=O)N[C@@H](Cc1ccc(O)cc1)C(=O)N[C@@H](CC(N)=O)C(=O)N[C@H](CCCNC(=N)N)C(N)=O", "test": "broth microdilution", "test system": "DSM 30008", "setting": "18 h, 37 °C, 25% MHB2", "MIC": "64 µg/mL"}
{"SMILES": "CC1(C)C(NC(=O)C(=NOCC(=O)N2CC3CCCC3C2C(=O)O)c2csc(N)n2)C(=O)N1OS(=O)(=O)O (stereo not drawn)", "test": "agar dilution", "test system": "16-16", "MIC": "> 64 µg/mL"}
{"SMILES": "CC[C@H]1OC(=O)[C@H](C)[C@@H](OC(=O)c2ccc(N)cc2)[C@H](C)[C@@H](O[C@@H]2O[C@H](C)C[C@H](N(C)C)[C@H]2O)[C@](C)(OC)C[C@@H](C)C(=O)[C@H](C)[C@@H](O)[C@]1(C)O", "test": "microbial growth", "test system": "ATCC19606", "MIC": "> 32 µg/mL"}
{"SMILES": "CCCCCCCC(=O)N[C@@H](CCN)C(=O)N[C@H](C(=O)N[C@@H](CCN)C(=O)N[C@H]1CCNC(=O)[C@H]([C@@H](C)O)NC(=O)[C@H](CCN)NC(=O)[C@H](CCN)NC(=O)[C@H]([C@@H](C)O)NC(=O)[C@@H](CC(C)C)NC(=O)[C@H](CCN)NC1=O)[C@@H](C)O", "test system": "ATCC 19606, CAMHB", "setting": "20 h, 37 °C", "MIC": "4 µg/mL"}
{"SMILES": "CCCCCCCC(=O)N[C@@H](C)C(=O)N[C@H](C(=O)N[C@@H](CCN)C(=O)N[C@H]1CCNC(=O)[C@H]([C@@H](C)O)NC(=O)[C@H](CCN)NC(=O)[C@H](CCN)NC(=O)[C@H](CC(C)C)NC(=O)[C@@H](Cc2ccccc2)NC(=O)[C@H](CCN)NC1=O)[C@@H](C)O", "test": "broth microdilution", "test system": "ATCC 17978", "setting": "20 h, 37 °C", "MIC": "64 µg/mL"}
{"SMILES": "C/C(=C\\c1ccc(O)cc1)C(=O)Nc1ccc(C(=O)N[C@@H](Cc2c[nH]nn2)C(=O)Nc2ccc(C(=O)Nc3ccc(C(=O)Nc4ccc(C(=O)O)c(O)c4)c(O)c3)cc2)cc1", "test": "broth microdilution", "test system": "ciprofloxacin-resistant", "MIC": "8 µg/mL"}
{"SMILES": "CC[C@H]1OC(=O)[C@H](C)[C@@H](OC(=O)Cc2c(F)cc([N+](=O)[O-])cc2F)[C@H](C)[C@@H](O[C@@H]2O[C@H](C)C[C@H](N(C)C)[C@H]2O)[C@](C)(OC)C[C@@H](C)C(=O)[C@H](C)[C@@H](O)[C@]1(C)O", "test system": "DSM 30007", "MIC": "8 µM"}
{"SMILES": "CCCCCCn1cc[n+](CCCCCCOc2cc(OCCCCCC[n+]3ccn(CCCCCC)c3)cc(OCCCCCC[n+]3ccn(CCCCCC)c3)c2)c1.[Br-].[Br-].[Br-]", "test system": "ATCC 17978", "MIC": "8 µM"}
{"SMILES": "CC1(C)[C@H](NC(=O)/C(=N\\OCCN)c2csc(N)n2)C(=O)N1OS(=O)(=O)O", "test": "agar dilution", "test system": "ATCC 19606", "MIC": "> 64 µg/mL"}
{"SMILES": "COc1ccc2ccc(O)c(/C=N/[C@H]3CCCC[C@H]3/N=C/c3cccc(F)c3O)c2c1", "test": "bacterial growth, broth microdilution", "test system": "carbapenem-resistant clinical isolate", "MIC": "> 40 µM"}
{"SMILES": "CC1(C)[C@H](NC(=O)/C(=N\\OCC(=O)N2CCC(C(=O)O)CC2)c2csc(N)n2)C(=O)N1OS(=O)(=O)O", "test": "agar dilution", "test system": "ATCC 19606", "MIC": "> 64 µg/mL"}
{"SMILES": "COc1c(NC(=O)c2ccc(NC(=O)c3ccc(NC(=O)[C@H](CC#N)NC(=O)c4ccc(NC(=O)/C(C)=C/c5ccc(O)cc5)cc4)cc3)c(OC)c2O)ccc(C(=O)O)c1O", "test": "microbial growth, broth dilution", "MIC": "2 µg/mL"}
{"SMILES": "CC(C)C[C@@H]1NC(=O)[C@@H](CC(C)C)NC(=O)[C@H](CCN)NC(=O)[C@@H](NC(=O)[C@H](CCN)NC(=O)[C@@H](N)[C@@H](C)O)CCNC(=O)[C@H]([C@@H](C)O)NC(=O)[C@H](CCN)NC(=O)[C@H](CCN)NC1=O", "test": "broth microdilution", "test system": "BAA-747, cation-adjusted Mueller-Hinton broth", "setting": "18 to 20 h, 37 °C, 0.002% polysorbate 80", "MIC": "> 128 µg/mL"}
{"SMILES": "CCCCCC[N+](C)(C)CCCCCCCCOc1cc(OCCCCCCCC[N+](C)(C)CCCCCC)cc(OCCCCCCCC[N+](C)(C)CCCCCC)c1.[Br-].[Br-].[Br-]", "test system": "ATCC 17978", "MIC": "4 µM"}
{"SMILES": "COc1nc(C(=O)Nc2ccc(C(=O)O)c(O)c2OC)ccc1NC(=O)c1ccc(NC(=O)[C@H](Cc2c[nH]nn2)NC(=O)c2ccc(NC(=O)/C(C)=C/c3ccc(O)cc3)cc2)cc1", "test": "broth microdilution", "test system": "ciprofloxacin-resistant", "MIC": "4 µg/mL"}
{"SMILES": "CCCCCCCC(=O)N[C@@H](CCN)C(=O)N[C@H](C(=O)N[C@@H](CCN)C(=O)N[C@H]1CCNC(=O)[C@H]([C@@H](C)O)NC(=O)[C@H](CCN)NC(=O)[C@H](CCN)NC(=O)[C@H](CC(C)C)NC(=O)[C@@H](Cc2ccccc2)NC(=O)[C@H](C)NC1=O)[C@@H](C)O", "test": "broth microdilution", "test system": "ATCC 19606", "setting": "20 h, 37 °C", "MIC": "> 512 µg/mL"}
{"SMILES": "CC[C@H]1OC(=O)[C@H](C)[C@@H](OC(=O)Cc2ccc3c(c2)OCO3)[C@H](C)[C@@H](O[C@@H]2O[C@H](C)C[C@H](N(C)C)[C@H]2O)[C@](C)(OC)C[C@@H](C)C(=O)[C@H](C)[C@@H](O)[C@]1(C)O", "test": "microbial growth", "test system": "ATCC19606", "MIC": "32 µg/mL"}
{"SMILES": "CC(=O)NC[C@H]1CN(c2ccc(N3CCN(C(=O)CN)CC3)c(F)c2)C(=O)O1", "test": "microbial growth, broth dilution", "test system": "ATCC19606", "MIC": "> 128 µM"}
{"SMILES": "COc1ccc2ccc(O)c(/C=N/[C@H]3CCCC[C@H]3/N=C/c3cc(C)ccc3O)c2c1", "test": "bacterial growth, broth microdilution", "test system": "carbapenem-resistant clinical isolate", "MIC": "> 40 µM"}
{"SMILES": "CC1(C)[C@H](NC(=O)/C(=N\\OC2(C(=O)O)CCCCC2)c2csc(N)n2)C(=O)N1OS(=O)(=O)O", "test": "agar dilution", "test system": "ATCC 19606", "MIC": "32 µg/mL"}
{"SMILES": "C#CCNC(=O)[C@H]1NC(=O)[C@H]2NC(=O)[C@H](NC(=O)[C@@H]3NC(=O)[C@H](CC(N)=O)NC(=O)[C@H](NC(=O)[C@@H](CC(C)C)NC)[C@H](O)c4ccc(c(Cl)c4)Oc4cc3cc(c4O[C@@H]3O[C@H](CO)[C@@H](O)[C@H](O)[C@H]3O[C@H]3C[C@](C)(N)[C@H](O)[C@H](C)O3)Oc3ccc(cc3Cl)[C@H]2O)c2ccc(O)c(c2)-c2c(O)cc(O)cc21", "test": "broth microdilution", "test system": "ATCC 17978, cation-adjusted Mueller-Hinton broth", "setting": "18 to 20 h, 37 °C, 0.002% polysorbate 80", "MIC": "128 µg/mL"}
{"SMILES": "CC1(C)C(NC(=O)C(=NOC2(C(=O)O)CC2)c2csc(N)n2)C(=O)N1OS(=O)(=O)O (stereo not drawn)", "test": "agar dilution", "test system": "16-16", "MIC": "64 µg/mL"}
{"SMILES": "CCCCCCCC(=O)N[C@@H](CCN)C(=O)N[C@H](C(=O)N[C@@H](CCN)C(=O)N[C@H]1CCNC(=O)[C@H]([C@@H](C)O)NC(=O)[C@H](C)NC(=O)[C@H](CCN)NC(=O)[C@H](CC(C)C)NC(=O)[C@@H](Cc2ccccc2)NC(=O)[C@H](CCN)NC1=O)[C@@H](C)O", "test": "CLSI broth microdilution", "test system": "246-01-C.246, CAMHB", "setting": "20 h, 37 °C", "MIC": "256 µg/mL"}
{"SMILES": "CC1(C)[C@H](NC(=O)/C(=N\\OCc2c(Cl)cccc2Cl)c2csc(N)n2)C(=O)N1OS(=O)(=O)O", "test": "agar dilution", "test system": "16-16", "MIC": "> 64 µg/mL"}
{"SMILES": "CCCCCCCCCC[N+](C)(C)CCCCOc1cc(OCCCC[N+](C)(C)CCCCCCCCCC)cc(OCCCC[N+](C)(C)CCCCCCCCCC)c1.[Br-].[Br-].[Br-]", "test system": "ATCC 17978", "MIC": "1 µM"}
{"note": "A few entries again:"}
{"SMILES": "CC[C@H]1OC(=O)[C@H](C)[C@@H](OC(=O)Cc2c(F)cc([N+](=O)[O-])cc2F)[C@H](C)[C@@H](O[C@@H]2O[C@H](C)C[C@H](N(C)C)[C@H]2O)[C@](C)(OC)C[C@@H](C)C(=O)[C@H](C)[C@@H](O)[C@]1(C)O", "test system": "DSM 30007", "MIC": "8 µM"}
{"SMILES": "CC1(C)C(NC(=O)C(=NOCC(=O)N2CC3CCCC3C2C(=O)O)c2csc(N)n2)C(=O)N1OS(=O)(=O)O (stereo not drawn)", "test": "agar dilution", "test system": "16-16", "MIC": "> 64 µg/mL"}
{"SMILES": "C/C(=C\\c1ccc(O)cc1)C(=O)Nc1ccc(C(=O)N[C@@H](Cc2c[nH]nn2)C(=O)Nc2ccc(C(=O)Nc3ccc(C(=O)Nc4ccc(C(=O)O)c(O)c4)c(O)c3)cc2)cc1", "test": "broth microdilution", "test system": "ciprofloxacin-resistant", "MIC": "8 µg/mL"}
{"SMILES": "COc1c(NC(=O)c2ccc(NC(=O)c3ccc(NC(=O)[C@H](CC#N)NC(=O)c4ccc(NC(=O)/C(C)=C/c5ccc(O)cc5)cc4)cc3)c(OC)c2O)ccc(C(=O)O)c1O", "test": "microbial growth, broth dilution", "MIC": "2 µg/mL"}
